Published values of several laboratories.
Lines come from different studies, so protocols differ. ± marks the error that the study gave.
Organism: Salmonella typhimurium

For `CN(N=O)c1ccc(F)cc1`, “revertant colonies per plate” read 14.3 ± 7 (mutagenicity, Ames plate incorporation; TA1535; 2500 µg/plate, 3 d, without S9, methanol).
For `OC(CCN1CC=C(c2ccc(F)cc2)CC1)c1ccc(F)c2ccccc12` (stereo not drawn), the induction factor was 1 (genotoxicity, SOS/umu test; TA1535/pSK1002; 0.004 mg/mL, 4 h, with S9, lower range).
For `N#C[C@@]1(n2ccc(N)nc2=O)O[C@H](CO)[C@@H](O)[C@H]1O`, the viability was 111% (TA1535; 1.2 µM, without S9).
For `Cc1cc(C(=O)NC(C)(C)COc2cccc3c2C(N)=NS(=O)(=O)N3)cc(C)n1`, the revertant ratio was 1.1 (Ames test, confirmatory; TA1537; 333 µg/plate, with: rat liver S9; reference: solvent control).
`O=[N+]([O-])c1ccc(NC2CCNCC2)c(C(F)(F)F)c1` has a survival of 99.3% (SOS/umu test; TA1535/pSK1002; 0.063 mg/mL, 4 h, with S9, full range).
`CC(C)N(C)N=O` — result for “revertant colonies per plate”: 6.7 ± 3 (mutagenicity, Ames plate incorporation; TA1537; 50 µg/plate, 3 d, without S9, methanol).
With `O=[N+]([O-])c1ccc(N2CCC(NCCC(O)c3ccc(F)c4ccccc34)CC2)c(C(F)(F)F)c1` (stereo not drawn) the induction factor was 0.55 (genotoxicity, SOS/umu test; TA1535/pSK1002; 0.008 mg/mL, 4 h, without S9, full range).
`CC(=O)N1CCC(C(=O)N2CCN3C(=O)c4cc(-c5ccccc5)ccc4NC(=O)C3C2)CC1` (stereo not drawn) — result for “fold increase in revertants”: 0.9 (TA98; 15.8 µg/plate; reference: vehicle).
`CNC(=O)c1c(N(C)N=O)ncn1C`: “revertant colonies per plate” 36.7 ± 2 (plate incorporation; TA1535, water; 1500 µg/plate, without S9).
Under “revertant colonies per plate”, `COc1cccc(-c2n[nH]c(SCc3ccccn3)n2)c1OC` is recorded as 7 (Ames test, plate incorporation; TA1537; 0.031 mg/plate, without S9).
With `O=[N+]([O-])c1ccc(N2CCN(CCC(O)c3ccc(F)cc3)CC2)c(C(F)(F)F)c1` (stereo not drawn) the survival was 81.6% (SOS/umu test; TA1535/pSK1002; 0.016 mg/mL, 4 h, with S9, full range).
`CN(CC(C)(C)C)N=O` — result for “revertant colonies per plate”: 27.7 ± 7 (mutagenicity, Ames plate incorporation; TA98; 1500 µg/plate, without S9, methanol).

Excerpt of the above:
Under “revertant colonies per plate”, `COc1cccc(-c2n[nH]c(SCc3ccccn3)n2)c1OC` is recorded as 7 (Ames test, plate incorporation; TA1537; 0.031 mg/plate, without S9).
With `O=[N+]([O-])c1ccc(N2CCN(CCC(O)c3ccc(F)cc3)CC2)c(C(F)(F)F)c1` (stereo not drawn) the survival was 81.6% (SOS/umu test; TA1535/pSK1002; 0.016 mg/mL, 4 h, with S9, full range).
